Results collected from several papers.
Numbered parts are unrelated; each lists some results of a single study.

Sample 1 — technique: RNA Bind-n-Seq; molecule type: RNA; sample: in vitro; concentration: 200 nM; setting: whole 134-nt RNA, ends assumed; added: 150 mM KCl; reference: input library; reading: higher = stronger binding
Target: Ras GTPase-activating protein-binding protein 1, full length (G3BP1, Homo sapiens, UniProt Q13283)
UniProt Q13283, sequence (whole entry, looked up): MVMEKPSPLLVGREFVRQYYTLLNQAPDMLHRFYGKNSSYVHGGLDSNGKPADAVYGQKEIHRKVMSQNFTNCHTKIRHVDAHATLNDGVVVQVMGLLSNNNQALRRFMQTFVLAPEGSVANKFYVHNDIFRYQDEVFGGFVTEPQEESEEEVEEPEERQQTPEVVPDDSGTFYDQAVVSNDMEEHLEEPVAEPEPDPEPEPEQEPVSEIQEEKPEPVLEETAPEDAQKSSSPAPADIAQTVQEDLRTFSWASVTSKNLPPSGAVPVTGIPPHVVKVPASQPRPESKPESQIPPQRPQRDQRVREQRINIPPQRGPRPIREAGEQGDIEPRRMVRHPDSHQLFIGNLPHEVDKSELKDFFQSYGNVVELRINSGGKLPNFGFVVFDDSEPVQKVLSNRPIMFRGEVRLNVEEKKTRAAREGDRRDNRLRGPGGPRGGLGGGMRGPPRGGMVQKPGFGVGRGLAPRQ
Constant ends, left off below: GGGAGUUCUACAGUCCGACGAUC … UGGAAUUCUCGGGUGUCAAGG
| Sequence | log2 enrichment |
| --- | --- |
| CACAGACAACAGGCACCCACACAGACACAGAGGGAAGGGGUUGGGAUGGGGACAGGGUGCACAGCAGGGCGGGGUAGGACCCCAGCCCCU | 1.8 |
| AAGUCCUGUGCUACACAUCGUAUGUACCGAAUCGGAAAAGGAAAAGGGGAAAAGGGAAAGUAUUAUGUUACGCCGUUCGGAUCUGCACUU | -0.933 |
| UAACUUUAGAGGAGGAUCUGAUGGAUGUGGCAGUGGACGUGGAUUUGGGGAUGGCUAUAAUGGGUAUGGAGGAGGACCUGGAGGUGGCAA | 0.38 |
| ACCAUGCAAGUGGGCAUCUUUGGGAAGUGGGGCAAGGGGGGGAUAGGGAGGGGGGUAACACUUUGGGAACAGGUGGUCCCAGGUCGUUUC | 1.05 |
| UCCUGUGCUACACAUCGUAUGUACCGAAUCGGGGAAAAAGGGGAAAAAGGGGAAAGGGGAAAGUAUUAUGUUACGCCGUUCGGAUCUGCA | 0.666 |
| CCUCAAGUCCUGUGCUACACAUCGUAUGUACCGAAUCGGUUUGGAAAGGUGGAAAGUAUUAUGUUACGCCGUUCGGAUCUGCACUUCCAG | -0.086 |
| UGGGAGGUGGAUUUUGUUUAUUUUUUUAGCUCAUUUCCAGGGGUGGGAAUUUUUUUUUAAUAUGUGUCAUGAAUGAAGUUGUUUUUGAAA | 0.242 |
| UCCUGUGCUACACAUCGUAUGUACCGAAUCGGGGUUUUUGGGUUUUUGGGGUUUUUGGGGAAAGUAUUAUGUUACGCCGUUCGGAUCUGC | 0.273 |
| GCAGGAAGUAAAAACAAAUGGAAAUGCUUCGGAUAGUGGCAGGGGUGGGGGUUGCCAAGGAAAGGGUGGGAUGGGAGUGGGUAAAGAGUU | 0.524 |
| UCCUGUGCUACACAUCGUAUGUACCGAAUCGGGGAAAGGGGAAAGGGGUUUUUUUGGGGAAAGUAUUAUGUUACGCCGUUCGGAUCUGCA | 0.67 |
| UUGUCUACAGAACUAGACAGUACGGAUGGUGCCAAAGUUUUUAGUAAACAACCAGGAAGAAUCCAAAGAGUAGCAAGAGGAUCGGGUGUA | -1.34 |
| UGGUGACCUACCUGGACGUCCGGAGCUGCCUUGGACACCUAGGCUACCUGGGCUACCCCACCCUCUGUGAGCAGGACCAGGCCCAUGCCA | -0.212 |
| UGGCCCUGGUGGCAUGCGGGGAAGAAGAGGUGGCCUCAUGGAUCGUGGUGGUCCCGGUGGAAUGUUCAGAGGUGGCCGUGGUGGAGACAG | 0.295 |
| CCUGUGCUACACAUCGUAUGUACCGAAUCAAAUUUUUAAAUUUUUUUAAACCCCCCCAAAAAAGUAUUAUGUUACGCCGUUCGGAUCUGC | 0.0312 |

Sample 2 — technique: RNA Bind-n-Seq; molecule type: RNA; sample: in vitro; concentration: 20 nM; setting: 6-mer, flanks averaged, single round; added: 150 mM KCl; reference: input library; reading: higher = stronger binding
Target: TAR DNA-binding protein 43, full length, His tag (TARDBP, Homo sapiens, UniProt Q13148, residues 1-414)
| Sequence | 6-mer enrichment (R) |
| --- | --- |
| UGCAUC | 0.622 |
| GGUUUG | 1.41 |
| UUGCAA | 0.644 |
| GUUGCC | 0.804 |
| ACGCAG | 0.93 |
| UCAACG | 0.689 |
| GCUGAG | 1.5 |
| GAUUGU | 0.762 |
| CGCGAU | 0.749 |
| UAGGAA | 0.815 |
| CAAUAG | 0.692 |
| CUUGUG | 0.865 |
| CAGGAC | 0.911 |
| ACGCAA | 0.685 |
| GGUGAA | 1.6 |
| AAUGUU | 0.703 |
| AUAGGC | 0.824 |
| CAGAUA | 0.622 |
| GAAGGA | 1.51 |
| GCCAAA | 0.8 |
| CCGGGC | 1.85 |
| GAACUU | 0.652 |
| CUGCAA | 0.646 |
| UAAUCU | 0.569 |
| GUAGCC | 0.839 |

Sample 3 — technique: protein binding microarray; molecule type: double-stranded DNA, one strand shown; sample: in vitro; concentration: not given; reference: not given; reading: higher = stronger binding
Target: Histone acetyltransferase KAT6A, both winged helices, GST fusion (KAT6A, Homo sapiens, UniProt Q92794, residues 1-181)
Setting: 8-mer, flanks averaged, mean of 2 arrays, mostly near background
Residues (chain): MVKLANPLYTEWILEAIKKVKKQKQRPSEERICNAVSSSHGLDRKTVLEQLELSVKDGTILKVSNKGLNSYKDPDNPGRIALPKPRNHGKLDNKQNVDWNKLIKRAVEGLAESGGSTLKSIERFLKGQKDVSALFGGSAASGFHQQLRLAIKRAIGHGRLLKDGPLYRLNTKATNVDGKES
| Sequence | E-score |
| --- | --- |
| AGAGGAGG | -0.241 |
| CATAAAGA | -0.0644 |
| AGCAGATC | -0.252 |
| AGGGTTAG | -0.167 |
| TACGCACA | 0.108 |
| AGATGTTG | -0.0854 |
| GTAGGGTA | -0.159 |
| GGTCCACA | -0.194 |
| CTTGCGTC | 0.0501 |
| ACCACCGA | -0.0086 |
| AAAGCGTA | 0.128 |
| AGTCTTCG | -0.0737 |
| TACCTCGA | -0.174 |
| CCCCCCAG | -0.37 |
| CTCAAAAC | -0.203 |
| AGGCGCCT | 0.226 |
| ACCTGGAA | -0.112 |
| ACCACCTC | -0.189 |

Sample 4 — technique: aptamer microarray, sandwich; molecule type: DNA with 2'F-ANA; sample: in vitro; concentration: 200 nM; added: Cy3 exosite-II aptamer, 400 nM; reading: higher = stronger binding; sequence: GGTTGGTGTGGTTGG
Target: Prothrombin, mature alpha-thrombin (F2, Homo sapiens, UniProt P00734)
Setting: whole 15-mer aptamer, many near background
| Modification | mean fluorescence intensity [a.u.] |
| --- | --- |
| 2'F-ANA at 2 4 5 6 8 9 10 11 12 14 | 44.9 |
| 2'F-ANA at 2 4 5 6 7 10 11 12 13 14 15 | 47 |
| 2'F-ANA at 1 3 5 7 12 13 14 15 | 46.6 |
| 2'F-ANA at 1 5 6 7 9 14 15 | 52.1 |
| 2'F-ANA at 1 3 4 6 8 9 11 12 13 15 | 235 |
| 2'F-ANA at 1 5 7 8 11 13 | 81.3 |
| 2'F-ANA at 1 8 10 11 | 50.1 |
| 2'F-ANA at 3 7 10 11 12 14 | 538 |
| 2'F-ANA at 1 2 3 4 5 9 11 12 13 14 | 48.3 |
| 2'F-ANA at 3 4 7 12 14 | 536 |
| 2'F-ANA at 2 3 4 6 8 11 13 14 15 | 213 |
| 2'F-ANA at 1 3 4 5 6 7 9 10 12 13 15 | 54.7 |
| 2'F-ANA at 1 3 5 7 8 9 10 11 12 13 14 | 49.7 |
| 2'F-ANA at 1 3 4 5 7 8 9 11 12 | 125 |
| 2'F-ANA at 3 14 | 671 |
| 2'F-ANA at 1 7 13 15 | 171 |
| 2'F-ANA at 1 4 12 13 14 15 | 55.2 |
| 2'F-ANA at 1 4 5 9 12 | 118 |
| 2'F-ANA at 2 3 12 15 | 1150 |
| 2'F-ANA at 2 3 5 7 11 14 | 58.4 |
| 2'F-ANA at 1 2 4 5 6 12 15 | 124 |
| 2'F-ANA at 1 2 7 9 10 11 12 15 | 64.2 |
| 2'F-ANA at 7 9 12 | 764 |
| 2'F-ANA at 3 4 5 6 10 11 12 13 14 15 | 95.3 |
| 2'F-ANA at 4 8 10 11 13 14 15 | 57.3 |

Sample 5 — technique: RNA Bind-n-Seq; molecule type: RNA; sample: in vitro; concentration: 365 nM; reference: no-protein control; reading: higher = stronger binding
Target: RNA binding protein fox-1 homolog 2, RRM domain, GST-SBP tag (RBFOX2, Homo sapiens, UniProt O43251-10, residues 100-194)
Setting: natural RNA segment, single round, ends assumed
Constant ends, left off below: GGGAGUUCUACAGUCCGACGAUC … UGGAAUUCUCGGGUGCCAA
Residues (chain): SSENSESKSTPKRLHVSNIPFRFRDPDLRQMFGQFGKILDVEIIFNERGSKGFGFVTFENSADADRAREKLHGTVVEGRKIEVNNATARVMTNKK
| Sequence | RBNS enrichment (R) |
| --- | --- |
| AGACAAUCUCAGCUUUUCUUAGACAAUCUUCUAUCUCAAACUUCAGACAUUCCAGAAUUGUCAUGAUGUUUACACUGUCUGAGUUAAAAAUCCUGUUCAAGAAAAAAAAA | 0.419 |
| UCCAUGUGUGUGCGAGCACGCGUGUCUGUGUCUGUGUGUGCAUACUUCUGUGACUUUAGACAUGCUUUCUUGUAGUGCUUCUGCAAAGGGACUUUUUUUGAAUCCUCAGU | 0.48 |
| AUAAAGUGUAGUGCAUUGAAACAAAUGAACAAAAAAGUAGAUACUUUUACUAUACAAGGGUGCUGGUGCAGAAAAAAAUAUAUAUAUUUUUGGAAAUGUAGCAUUUUAUA | 0.548 |
| GUAACCCAUGAAGGCCCACAGCGGGAUGGGACUAGUUUAUAGGAGAGCGUUGUCAAUACCACUUAUAAAGCCAAGAAUUGCCAUGAUUUAAGACUAAGAUCUGUCUUUUU | 0.639 |
| AGAAUCUGUAAGCUAAUAAAAUGUAAGAAAAGGUUAAAAAAAGAAUAGGUAAAUUGACAAGAAGUAUUUAUUGUUUUUCCAUAUUGCUUUAUUGCCUUCCUUGGGGAUAA | 0.653 |
| AGCAGCAGCGCCCCCUGCUCUCCUGUGCCUCAGCCCUUCUUAUGUUCCCUGAUGUCACACCCCACUUCCCGUCUCCCUGCACCCUGGGGCUUGAGACUGGUGUCUGUUUC | 0.768 |
| CUUGAAUCCCCCGUAAACACCAGACGAUUGAGUCUACCUUCUUUUCUUGGCCACCUCCCCAUUCACAACUACUUUCUCGCUCCCAGAAGGUUGAUCAGAUAUUCUACAAU | 0.752 |
| UUGCGUCACGUGGACCAGGGACAGUGCUGAAAUCAGCAGUGCUCAGAAACAAUUUAACAUGUUGAAACGACAAUAUUCUAAAAUACUGAUGAAUCUUGCAUCAAUAUAAU | 0.334 |
| UUUUAAAAAUACCAACUUGUAUGCACUUUAGAAUGUAAAAUAACAGUGGAUACUUAAGACUCAAAGAGCCACCACUACUUUAUUUUUUAUACACUUGGUCUUUCCAUGUA | 1.41 |
| UCCGUAUCUGGUUGCAAUUGAAAACUGAUGCUUCAGUGAGGGUAUCUAAAAAGGUAAACUGGCAUAUCCAGGGCAAAUGUGGGCUGCCAAUGGCUCAUCUCUAGGGUAAU | 0.349 |
| UGUGUCAGUUACACCUUAUCCACAUAGCCUGAGGGUAAUUUUAUACGAUAUUUUAAAUAGUUGUGUACAUGAAGCAUGGUUUGUGGUAACUUAUGUGAGGGGUUUUCCCA | 4.63 |
| AGGCAAAAAGUGUGUUGCCGAGGCCUCUUGGCUCUUGAGUAGCAGAGCUGAGACUGGUUCCCUGAUGCUCCGUCAGCUUCCCUAUGUGGCUGGCUCAUUAUUUUCCUCAA | 0.308 |

Repeated from above (sample 2):
| Sequence | 6-mer enrichment (R) |
| --- | --- |
| CAGGAC | 0.911 |
| ACGCAA | 0.685 |
| GGUGAA | 1.6 |
| AAUGUU | 0.703 |
| AUAGGC | 0.824 |
